Assay results collected from several papers.
Numbered parts are unrelated; each lists some results of a single study.
Sequence of UniProt Q15746 (whole entry, looked up): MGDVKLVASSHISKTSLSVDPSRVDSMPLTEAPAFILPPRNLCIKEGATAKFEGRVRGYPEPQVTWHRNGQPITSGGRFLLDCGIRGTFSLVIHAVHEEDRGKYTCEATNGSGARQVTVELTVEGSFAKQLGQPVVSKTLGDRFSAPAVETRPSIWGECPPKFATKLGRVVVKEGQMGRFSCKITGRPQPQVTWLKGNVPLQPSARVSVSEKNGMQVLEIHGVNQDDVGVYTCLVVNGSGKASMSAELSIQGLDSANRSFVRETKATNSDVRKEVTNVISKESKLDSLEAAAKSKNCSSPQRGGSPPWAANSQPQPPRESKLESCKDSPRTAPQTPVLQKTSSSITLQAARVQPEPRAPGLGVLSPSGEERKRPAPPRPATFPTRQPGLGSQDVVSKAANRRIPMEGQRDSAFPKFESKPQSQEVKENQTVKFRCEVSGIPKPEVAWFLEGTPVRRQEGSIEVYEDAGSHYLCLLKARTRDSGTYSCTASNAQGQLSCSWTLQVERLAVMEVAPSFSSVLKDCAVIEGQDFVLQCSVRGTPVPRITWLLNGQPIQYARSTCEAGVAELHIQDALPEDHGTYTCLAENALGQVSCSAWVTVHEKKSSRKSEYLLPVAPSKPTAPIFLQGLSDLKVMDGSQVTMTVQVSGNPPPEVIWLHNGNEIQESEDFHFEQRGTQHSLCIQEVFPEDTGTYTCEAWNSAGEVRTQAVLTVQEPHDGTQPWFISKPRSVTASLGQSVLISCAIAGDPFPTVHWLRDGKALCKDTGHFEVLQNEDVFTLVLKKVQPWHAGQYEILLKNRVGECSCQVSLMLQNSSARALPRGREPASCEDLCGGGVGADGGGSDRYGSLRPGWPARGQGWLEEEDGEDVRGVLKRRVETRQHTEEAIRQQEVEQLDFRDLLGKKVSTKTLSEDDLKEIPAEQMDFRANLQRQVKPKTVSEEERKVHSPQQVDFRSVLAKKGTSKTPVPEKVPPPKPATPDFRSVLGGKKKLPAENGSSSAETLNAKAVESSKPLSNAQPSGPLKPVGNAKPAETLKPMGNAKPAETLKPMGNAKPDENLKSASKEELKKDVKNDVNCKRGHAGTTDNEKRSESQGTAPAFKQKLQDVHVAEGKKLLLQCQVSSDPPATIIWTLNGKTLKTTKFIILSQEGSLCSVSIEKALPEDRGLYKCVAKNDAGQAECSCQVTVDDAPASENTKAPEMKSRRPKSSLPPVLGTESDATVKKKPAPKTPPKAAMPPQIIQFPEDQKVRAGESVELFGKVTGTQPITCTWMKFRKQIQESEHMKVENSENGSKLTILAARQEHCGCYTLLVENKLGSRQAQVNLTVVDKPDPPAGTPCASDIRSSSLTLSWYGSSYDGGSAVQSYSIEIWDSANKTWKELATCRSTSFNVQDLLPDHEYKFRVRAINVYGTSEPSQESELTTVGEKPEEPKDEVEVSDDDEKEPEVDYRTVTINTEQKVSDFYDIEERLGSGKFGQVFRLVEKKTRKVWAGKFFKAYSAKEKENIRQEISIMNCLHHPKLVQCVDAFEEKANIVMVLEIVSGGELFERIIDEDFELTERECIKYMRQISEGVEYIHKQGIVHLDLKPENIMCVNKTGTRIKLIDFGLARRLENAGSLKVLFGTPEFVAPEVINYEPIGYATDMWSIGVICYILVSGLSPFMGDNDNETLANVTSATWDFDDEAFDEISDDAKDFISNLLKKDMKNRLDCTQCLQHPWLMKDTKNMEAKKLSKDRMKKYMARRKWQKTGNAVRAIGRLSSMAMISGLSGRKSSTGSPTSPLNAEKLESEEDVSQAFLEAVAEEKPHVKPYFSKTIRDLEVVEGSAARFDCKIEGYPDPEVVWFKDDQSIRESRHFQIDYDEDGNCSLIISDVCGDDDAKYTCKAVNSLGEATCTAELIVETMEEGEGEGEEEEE
Sequence of UniProt Q02156 (whole entry, looked up): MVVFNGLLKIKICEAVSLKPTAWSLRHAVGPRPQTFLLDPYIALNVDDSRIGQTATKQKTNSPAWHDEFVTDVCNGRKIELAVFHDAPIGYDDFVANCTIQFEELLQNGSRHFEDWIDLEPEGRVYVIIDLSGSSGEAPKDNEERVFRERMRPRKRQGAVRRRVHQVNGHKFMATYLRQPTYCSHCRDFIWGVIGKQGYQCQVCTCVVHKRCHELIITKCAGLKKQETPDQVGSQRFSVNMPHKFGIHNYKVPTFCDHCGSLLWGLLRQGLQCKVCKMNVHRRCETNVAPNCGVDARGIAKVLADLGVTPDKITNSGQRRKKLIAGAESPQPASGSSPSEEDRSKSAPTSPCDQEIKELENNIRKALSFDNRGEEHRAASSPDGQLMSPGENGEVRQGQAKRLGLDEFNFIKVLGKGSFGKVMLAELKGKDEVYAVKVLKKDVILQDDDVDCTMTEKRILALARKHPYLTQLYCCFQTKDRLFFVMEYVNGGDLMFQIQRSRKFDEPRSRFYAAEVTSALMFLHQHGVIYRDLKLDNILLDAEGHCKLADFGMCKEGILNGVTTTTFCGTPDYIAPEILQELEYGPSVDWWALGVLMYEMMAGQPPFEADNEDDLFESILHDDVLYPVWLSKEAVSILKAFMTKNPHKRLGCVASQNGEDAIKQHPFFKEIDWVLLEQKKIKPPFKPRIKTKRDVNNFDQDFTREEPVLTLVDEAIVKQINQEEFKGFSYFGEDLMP
Sequence of UniProt P54764 (whole entry, looked up): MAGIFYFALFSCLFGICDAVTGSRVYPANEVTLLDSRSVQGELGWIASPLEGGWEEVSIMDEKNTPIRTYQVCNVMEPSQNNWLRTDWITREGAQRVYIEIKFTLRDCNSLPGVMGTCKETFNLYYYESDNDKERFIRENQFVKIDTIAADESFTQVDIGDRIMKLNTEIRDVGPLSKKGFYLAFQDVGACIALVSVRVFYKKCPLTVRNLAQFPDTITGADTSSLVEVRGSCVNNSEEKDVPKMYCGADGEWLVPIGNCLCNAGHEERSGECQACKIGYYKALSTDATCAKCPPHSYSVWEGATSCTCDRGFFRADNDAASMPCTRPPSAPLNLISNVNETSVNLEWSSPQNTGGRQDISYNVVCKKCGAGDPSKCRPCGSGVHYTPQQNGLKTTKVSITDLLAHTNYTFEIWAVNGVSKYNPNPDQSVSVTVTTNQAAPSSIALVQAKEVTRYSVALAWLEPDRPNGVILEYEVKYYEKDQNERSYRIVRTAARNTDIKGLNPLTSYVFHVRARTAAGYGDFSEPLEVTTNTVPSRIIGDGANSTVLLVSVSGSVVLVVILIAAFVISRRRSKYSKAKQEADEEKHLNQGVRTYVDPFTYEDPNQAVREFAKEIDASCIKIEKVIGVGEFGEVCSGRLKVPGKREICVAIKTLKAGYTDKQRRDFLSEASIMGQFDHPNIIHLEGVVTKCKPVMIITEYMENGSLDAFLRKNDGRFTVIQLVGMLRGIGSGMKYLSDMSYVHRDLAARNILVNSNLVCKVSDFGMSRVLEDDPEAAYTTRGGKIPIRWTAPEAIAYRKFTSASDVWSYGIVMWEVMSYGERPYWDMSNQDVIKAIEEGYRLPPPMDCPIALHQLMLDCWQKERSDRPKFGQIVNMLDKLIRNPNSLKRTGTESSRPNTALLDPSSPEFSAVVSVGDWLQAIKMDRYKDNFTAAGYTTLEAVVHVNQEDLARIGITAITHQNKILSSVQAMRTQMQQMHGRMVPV

Sample 1
Structure (SMILES): O=C1Cc2c([nH]c3ccc(Br)cc23)-c2ccccc2N1
Observed: enzyme activity
Mode: inhibitor
Concentration: 0.5 µM
Relative to: control
target | remaining activity [%]
SGK1 (Homo sapiens, UniProt O00141) | 107
PIM2 (Homo sapiens, UniProt Q9P1W9) | 104
EPHA7 (Homo sapiens, UniProt Q15375) | 101
BMX (Homo sapiens, UniProt P51813) | 99.6
PRKCE (Homo sapiens, UniProt Q02156) | 96.9
RPS6KB1 (Homo sapiens, UniProt P23443) | 103
PAK2 (Homo sapiens, UniProt Q13177) | 95.5
CSF1R (Homo sapiens, UniProt P07333) | 92.6
SRPK3 (Homo sapiens, UniProt Q9UPE1) | 100
NUAK1 (Homo sapiens, UniProt O60285) | 14.6
GRK2 (Homo sapiens, UniProt P25098) | 103
FGFR4 (Homo sapiens, UniProt P22455) | 113
EPHB2 (Homo sapiens, UniProt P29323) | 95.5
GSK3A (Homo sapiens, UniProt P49840) | 5.87
MYLK (Homo sapiens, UniProt Q15746) | 96.3
CSK (Homo sapiens, UniProt P41240) | 88
GRK6 (Homo sapiens, UniProt P43250) | 105
Aurora kinase C (AURKC, Homo sapiens, UniProt Q9UQB9) | 90.9
RPS6KA1 (Homo sapiens, UniProt Q15418) | 90.8
PRKCG (Homo sapiens, UniProt P05129) | 93.8
FLT3 (Homo sapiens, UniProt P36888) | 47.7

Sample 2
Target: Calcium/calmodulin-dependent protein kinase type II subunit alpha (CAMK2A, Homo sapiens, UniProt Q9UQM7)
Sequence of UniProt Q9UQM7 (whole entry, looked up): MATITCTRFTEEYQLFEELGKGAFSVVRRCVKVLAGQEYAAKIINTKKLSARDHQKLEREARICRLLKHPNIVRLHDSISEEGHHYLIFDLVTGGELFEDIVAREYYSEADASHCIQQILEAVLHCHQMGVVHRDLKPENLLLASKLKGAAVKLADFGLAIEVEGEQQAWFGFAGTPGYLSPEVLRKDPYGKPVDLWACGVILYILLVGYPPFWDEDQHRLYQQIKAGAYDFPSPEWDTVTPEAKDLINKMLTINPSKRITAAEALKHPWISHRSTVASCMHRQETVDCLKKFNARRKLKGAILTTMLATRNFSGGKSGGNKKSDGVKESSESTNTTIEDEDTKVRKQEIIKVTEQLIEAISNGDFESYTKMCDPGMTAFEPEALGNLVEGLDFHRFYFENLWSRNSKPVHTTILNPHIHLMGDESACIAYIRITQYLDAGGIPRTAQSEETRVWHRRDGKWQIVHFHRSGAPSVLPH
Observed: enzyme activity
Mode: inhibitor
Concentration: 10 µM
SMILES | inhibition [%]
O=C(c1ccccc1)C(O)c1ccccc1 (stereo not drawn) | -1
CO/N=C(\C(=O)N[C@@H]1C(=O)N2C(C(=O)O)=C(/C=C\c3scnc3C)CS[C@H]12)c1csc(N)n1 | -1
CN(C)CCC(c1ccc(Br)cc1)c1ccccn1 (stereo not drawn) | -1
C[C@H](CCC(=O)NCCS(=O)(=O)O)[C@H]1CC[C@H]2[C@@H]3CC[C@@H]4C[C@H](O)CC[C@]4(C)[C@H]3CC[C@]12C | -7
O=C(O)CSCC(=O)NC1CCSC1=O (stereo not drawn) | 0
CCCCCCCCCCC[C@@H](C[C@@H]1OC(=O)[C@H]1CCCCCC)OC(=O)[C@H](CC(C)C)NC=O | -3
C[C@H]1C(=O)CC[C@@H]2[C@]1(C)CC[C@H]1[C@@]2(C)CC[C@@]2(C)[C@@H]3CC(C)(C)CC[C@]3(C)CC[C@]12C | -52
COc1cc(O)cc2c1C(=O)C[C@@H](c1ccccc1)O2 | -32
CC(CN)C(=O)O (stereo not drawn) | 13
CC(C)=CC/C=C(\C)[C@H]1CC[C@]2(C)[C@@H]1[C@H](O)C[C@@H]1[C@@]3(C)C[C@@H](O)[C@H](O[C@@H]4O[C@H](CO)[C@@H](O)[C@H](O)[C@H]4O[C@@H]4O[C@H](CO)[C@@H](O)[C@H](O)[C@H]4O)C(C)(C)[C@@H]3CC[C@]12C | -12
COc1cc(/C=C/C(=O)O[C@@H]2C[C@@](O)(C(=O)O)C[C@@H](O)[C@@H]2O)ccc1O | 39
O=C(O)C(=O)Cc1ccccc1 | -13
O=C1c2ccccc2-n2c1nc1ccccc1c2=O | -26
CCCNC(C)C(=O)Nc1ccccc1C (stereo not drawn) | -10
O=C(O)[C@@H]1C[C@@H](O)CN1 | 4
C=C1C(=O)O[C@@H]2[C@H]3C(CO)=CC(=O)C3=C(C)C[C@H](OC(=O)Cc3ccc(O)cc3)[C@@H]12 | 11
COc1cc2cc(c1Cl)N(C)C(=O)C[C@H](O)[C@]1(C)O[C@H]1[C@H](C)[C@@H]1C[C@@](O)(NC(=O)O1)[C@H](OC)/C=C/C=C(\C)C2 | -21
CO[C@@]1(NC(=O)CSCC#N)C(=O)N2C(C(=O)O)=C(CSc3nnnn3C)CS[C@@H]21 | -10

Sample 3
SMILES: CCCOc1ccc([C@@H]2[C@@H](C(=O)O)[C@H](c3ccc4c(c3)OCO4)CN2CC(=O)Nc2c(CC)cccc2CC)cc1
Observed: cell-free assay
Method: competition with immobilised ligand
Concentration: 1 µM
target | remaining binding
BRAF (Homo sapiens, UniProt P15056, V600E) | 98%
CAMK2D (Homo sapiens, UniProt Q13557) | 88%
CLK3 (Homo sapiens, UniProt P49761) | 93%
EPHA4 (Homo sapiens, UniProt P54764) | 75%
CDK11B (Homo sapiens, UniProt P21127) | 94%
MAP2K6 (Homo sapiens, UniProt P52564) | 100%
DAPK1 (Homo sapiens, UniProt P53355) | 83%
PIK3C2B (Homo sapiens, UniProt O00750) | 94%
MYLK (Homo sapiens, UniProt Q15746) | 100%
EGFR (Homo sapiens, UniProt P00533, del747-752/P753S) | 58%
PRKCE (Homo sapiens, UniProt Q02156) | 97%
NTRK3 (Homo sapiens, UniProt Q16288) | 91%
ERBB3 (Homo sapiens, UniProt P21860) | 84%
KIT (Homo sapiens, UniProt P10721, D816V) | 99%
CAMK4 (Homo sapiens, UniProt Q16566) | 96%

Sample 4
SMILES: C=CCc1ccc(O)c(-c2ccc(O)c(CC=C)c2)c1
Observed: chloride current
ANO1 del476-501/F628A: Anoctamin-1 (ANO1, Homo sapiens, UniProt Q5XXA6, del476-501/F628A)
Sequence of UniProt Q5XXA6 (whole entry, unmodified, looked up): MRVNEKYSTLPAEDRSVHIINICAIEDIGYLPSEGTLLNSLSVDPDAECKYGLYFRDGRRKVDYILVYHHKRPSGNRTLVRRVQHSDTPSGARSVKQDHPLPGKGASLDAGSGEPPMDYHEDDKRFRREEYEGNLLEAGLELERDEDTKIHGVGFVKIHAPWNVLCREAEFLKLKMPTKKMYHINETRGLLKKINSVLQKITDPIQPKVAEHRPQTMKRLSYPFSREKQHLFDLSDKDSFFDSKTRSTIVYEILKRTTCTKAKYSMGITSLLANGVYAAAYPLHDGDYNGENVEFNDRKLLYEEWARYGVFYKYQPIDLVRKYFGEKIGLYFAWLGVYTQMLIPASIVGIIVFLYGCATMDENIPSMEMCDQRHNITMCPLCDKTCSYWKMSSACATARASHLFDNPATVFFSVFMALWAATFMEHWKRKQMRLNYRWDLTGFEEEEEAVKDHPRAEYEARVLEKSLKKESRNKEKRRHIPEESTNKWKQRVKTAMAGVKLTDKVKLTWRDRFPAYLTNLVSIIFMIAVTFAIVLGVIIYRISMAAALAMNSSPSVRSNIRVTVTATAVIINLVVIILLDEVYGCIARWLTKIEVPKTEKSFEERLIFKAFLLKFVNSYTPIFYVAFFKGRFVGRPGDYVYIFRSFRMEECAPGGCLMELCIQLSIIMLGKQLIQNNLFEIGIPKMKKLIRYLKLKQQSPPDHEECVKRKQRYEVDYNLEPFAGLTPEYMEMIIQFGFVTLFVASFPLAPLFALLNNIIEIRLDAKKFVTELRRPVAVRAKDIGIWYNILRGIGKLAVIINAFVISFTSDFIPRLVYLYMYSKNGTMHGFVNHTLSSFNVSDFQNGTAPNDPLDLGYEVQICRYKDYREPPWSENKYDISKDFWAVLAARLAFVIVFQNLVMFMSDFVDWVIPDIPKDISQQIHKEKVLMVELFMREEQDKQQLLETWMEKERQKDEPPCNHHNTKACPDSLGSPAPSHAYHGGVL
ANO1 del476-501: Anoctamin-1 (ANO1, Homo sapiens, UniProt Q5XXA6, del476-501)
target | assay | conditions | normalized current
ANO1 del476-501/F628A | whole-cell voltage clamp | 3 µM, concentration-response at 80 mV, added: 4 µM Ca2+ | 0.716
ANO1 del476-501/F628A | whole-cell voltage clamp | 1 µM, concentration-response at 20 mV, added: 4 µM Ca2+ | 0.19
ANO1 del476-501 | whole-cell voltage clamp | 10 µM, wild type, concentration-response at -80 mV, added: 4 µM Ca2+ | -0.209
ANO1 del476-501 | whole-cell voltage clamp | 10 µM, wild type, concentration-response at 60 mV, added: 4 µM Ca2+ | 0.164
Anoctamin-1 (ANO1, Homo sapiens, UniProt Q5XXA6, del476-501/E659A/K629A) | inside-out patch clamp | 10 µM, membrane voltage 0 mV | -0.0012
Anoctamin-1 (ANO1, Homo sapiens, UniProt Q5XXA6, del476-501/E649A/R541A) | inhibitor, inside-out patch clamp | 10 µM, R515A/E623A mutant at -100 mV | -0.455
ANO1 del476-501 | whole-cell voltage clamp | 1 µM, wild type, I-V at -80 mV, added: 4 µM Ca2+ | -0.673
ANO1 del476-501/F628A | whole-cell voltage clamp | 30 µM, I-V at 40 mV, added: 4 µM Ca2+ | 0.168
ANO1 del476-501/F628A | whole-cell voltage clamp | 10 µM, concentration-response at -80 mV, added: 4 µM Ca2+ | -0.557
ANO1 del476-501 | whole-cell voltage clamp | 3 µM, wild type, I-V at 0 mV, added: 4 µM Ca2+ | -0.0017
ANO1 del476-501/F628A | whole-cell voltage clamp | 30 µM, I-V at -20 mV, added: 4 µM Ca2+ | -0.0801
ANO1 del476-501 | whole-cell voltage clamp | 3 µM, wild type, I-V at 100 mV, added: 4 µM Ca2+ | 0.786

Excerpt of the above (sample 2):
SMILES | inhibition [%]
CC(C)=CC/C=C(\C)[C@H]1CC[C@]2(C)[C@@H]1[C@H](O)C[C@@H]1[C@@]3(C)C[C@@H](O)[C@H](O[C@@H]4O[C@H](CO)[C@@H](O)[C@H](O)[C@H]4O[C@@H]4O[C@H](CO)[C@@H](O)[C@H](O)[C@H]4O)C(C)(C)[C@@H]3CC[C@]12C | -12
CO[C@@]1(NC(=O)CSCC#N)C(=O)N2C(C(=O)O)=C(CSc3nnnn3C)CS[C@@H]21 | -10
CC(CN)C(=O)O (stereo not drawn) | 13
CN(C)CCC(c1ccc(Br)cc1)c1ccccn1 (stereo not drawn) | -1
